Results gathered from unrelated publications.
Numbered parts are unrelated; each lists some results of a single study. Changes are numbered by the printed parent chain.

Study 1 — target: JUN, bZIP domain (human); method: DHFR protein complementation; medium: yeast; reference: wild-type JUN-FOS pair; direction: higher = stronger binding
Notes: single substitutions, most at no-binding floor
Starting sequence: JUN, bZIP domain (human); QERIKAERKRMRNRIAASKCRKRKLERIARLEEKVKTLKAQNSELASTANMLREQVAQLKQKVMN; partner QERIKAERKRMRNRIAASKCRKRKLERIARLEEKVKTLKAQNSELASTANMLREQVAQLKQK
| Variant | binding fitness [natural log] |
| --- | --- |
| A57L | -0.514 |
| A40L | -0.361 |
| S47L | -0.226 |
| A29M | -0.662 |
| Q55Y | -0.803 |
| V56M | -0.459 |
| E54Y | -0.698 |
| T37F | -0.102 |
| E33T | -0.472 |
| K34G | -0.999 |
| S47V | -0.115 |
| A49C | 0.137 |
| K36F | -0.762 |
| N42W | -1.1 |
| T48M | -0.258 |
| I28R | -0.865 |
| L52N | -1.11 |
| V56Y | -0.583 |

Study 2 — method: protein-binding microarray; form: double-stranded DNA, one strand shown; medium: in vitro; concentration: 2540 nM top; notes: 60-bp whole probe; together with: salmon DNA 0.4 mg/ml; reference: random background probes; direction: higher = stronger binding; constant ends, left off below: GCCTAGCAC … GTCTTGATTCGCTTGACGCTGCTG
Target: Interferon regulatory factor 3, full length, phosphomimetic (IRF3, Homo sapiens, UniProt Q14653, residues 1-427, S386D/S396D/S398D/S402D/T404D/S405D)
Target sequence (chain): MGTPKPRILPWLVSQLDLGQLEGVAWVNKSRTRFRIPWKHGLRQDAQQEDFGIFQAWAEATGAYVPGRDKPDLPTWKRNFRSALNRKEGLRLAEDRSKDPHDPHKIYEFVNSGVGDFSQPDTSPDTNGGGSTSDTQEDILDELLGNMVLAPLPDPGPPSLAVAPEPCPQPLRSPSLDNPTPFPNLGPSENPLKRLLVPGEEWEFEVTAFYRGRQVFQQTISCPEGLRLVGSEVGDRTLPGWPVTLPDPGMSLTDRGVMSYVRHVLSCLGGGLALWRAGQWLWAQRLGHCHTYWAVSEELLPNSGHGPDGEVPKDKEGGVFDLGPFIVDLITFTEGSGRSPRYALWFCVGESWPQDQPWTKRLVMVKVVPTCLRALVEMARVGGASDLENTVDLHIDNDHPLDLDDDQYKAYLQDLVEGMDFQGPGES
| Sequence | fitted relative affinity [z-score] |
| --- | --- |
| GACGAACTGGGGCTTCGAGACGTGCTA | -0.841 |
| GACGGTATCCTTCTCTTGACGTGCTAG | 6.53 |
| GACGGTTTCGTTATCGGGACGTGCTAG | 6.42 |
| TTAGGTTACGGTATCGGTTAGTGCTAG | 2.77 |
| GACAATTTCAGTCTCGAGACGTGCTAG | 2.08 |
| TTCTTTATGTACTCTCTCCATGTGCTA | 0.825 |
| GTACCACTCCAGTTCTGGGAGTGCTAG | 1.25 |
| TAGAGTAGCTTTCTGAGGGCGTGCTAG | -0.396 |
| TTAGGACTGGGGACTGGGTTTGTGCTA | -1.13 |
| CTAGGTATCGGTCTCGGTTAGTGCTAG | 4.69 |
| TCACCTCTGGGATCCCAGACTGTGCTA | 0.311 |
| TATTTTTTTCTAATTGAAATGTGCTAG | 1.52 |
| TCATGGTTGAACATGAAACTGTGCTAG | -0.377 |
| CACGATATCAGTTTCGAGACGTGCTAG | 3.25 |
| TTAGGTCTCCTTTTCCTTCAGTGCTAG | 5.15 |
| CAGAGCCTCAGTCCTCACACAGTGCTA | -0.429 |
| TTAGAACTGAGTTTTGATTAGTGCTAG | 0.0658 |
| TTATGTGTAGGTCTTAAATAGTGCTAG | -0.0964 |
| TCACTCTTCTGCTTCCTACTGTGCTAG | 1.24 |

Study 3 — method: universal PBM; form: double-stranded DNA, one strand shown; medium: in vitro; concentration: 600 nM; direction: higher = stronger binding
Target: Sal-like protein 4, full length isoform A (SALL4, Homo sapiens, UniProt Q9UJQ4, residues 1-1053)
UniProt Q9UJQ4, sequence (whole entry, looked up): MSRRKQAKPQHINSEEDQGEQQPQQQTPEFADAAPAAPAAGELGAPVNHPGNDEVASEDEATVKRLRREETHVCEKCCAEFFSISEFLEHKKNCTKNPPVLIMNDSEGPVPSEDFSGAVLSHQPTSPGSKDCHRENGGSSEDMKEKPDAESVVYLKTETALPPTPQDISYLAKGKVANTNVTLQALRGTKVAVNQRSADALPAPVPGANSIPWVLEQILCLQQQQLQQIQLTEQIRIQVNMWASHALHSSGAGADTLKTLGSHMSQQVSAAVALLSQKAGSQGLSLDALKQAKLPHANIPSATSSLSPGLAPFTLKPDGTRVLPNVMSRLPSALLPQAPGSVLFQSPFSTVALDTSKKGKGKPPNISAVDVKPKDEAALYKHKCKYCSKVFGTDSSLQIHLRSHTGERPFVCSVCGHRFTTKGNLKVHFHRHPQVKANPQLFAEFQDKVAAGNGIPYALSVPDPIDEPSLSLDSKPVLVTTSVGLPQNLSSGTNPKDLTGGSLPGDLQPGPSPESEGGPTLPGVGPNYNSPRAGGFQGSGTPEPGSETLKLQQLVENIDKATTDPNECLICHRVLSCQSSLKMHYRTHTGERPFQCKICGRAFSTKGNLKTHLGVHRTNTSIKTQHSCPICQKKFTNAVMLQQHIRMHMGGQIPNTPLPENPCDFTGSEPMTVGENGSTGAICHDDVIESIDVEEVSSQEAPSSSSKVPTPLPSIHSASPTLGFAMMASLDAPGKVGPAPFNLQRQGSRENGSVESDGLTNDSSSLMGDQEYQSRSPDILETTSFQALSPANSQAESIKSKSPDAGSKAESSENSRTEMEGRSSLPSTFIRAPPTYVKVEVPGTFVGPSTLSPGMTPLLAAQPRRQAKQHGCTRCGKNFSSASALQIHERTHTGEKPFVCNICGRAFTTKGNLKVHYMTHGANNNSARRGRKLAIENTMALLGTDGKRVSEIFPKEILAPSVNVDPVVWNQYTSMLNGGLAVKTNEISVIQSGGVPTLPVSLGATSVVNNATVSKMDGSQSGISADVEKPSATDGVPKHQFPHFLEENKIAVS
Notes: 8-mer, flanks averaged, mean of replicates
| Sequence | E-score |
| --- | --- |
| AGCATTTA | 0.0864 |
| AAGTTAAG | -0.0283 |
| AGGATTGC | -0.133 |
| AGGAGGTA | -0.00239 |
| TCACCTGA | -0.0437 |
| AGACACTC | -0.165 |
| AGGGGTGC | -0.282 |
| ACCCTCAG | -0.0659 |
| GGAATAAA | 0.294 |
| ACGACTTC | 0.0676 |
| AAGGGCAA | -0.124 |
| GACATTCC | -0.0558 |
| ACTTGCCA | -0.104 |
| CTACATCA | 0.0537 |
| CACTCACG | -0.217 |
| ATTTGCCG | -0.0558 |
| ACAAAGGA | 0.135 |
| AGAAACGA | -0.0327 |
| GAACTAAC | -0.104 |
| AAACGTAT | 0.222 |
| ACTCCCCT | -0.159 |
| AACATTTA | 0.288 |
| AAGCGCGG | -0.277 |
| ATATCGAG | 0.156 |
| CCCCCTTA | -0.187 |

Study 4 — method: DHFR PCA, deep sequencing; medium: yeast; together with: (+)-ABA 2500 µM; reference: wild-type fitted maximum; direction: higher = stronger binding
Target: ABI1, truncated, D143A, DHFR fusion (Arabidopsis thaliana)
Notes: methotrexate growth selection, single substitutions
Starting sequence: PYL1, truncated, DHFR fusion (Arabidopsis thaliana); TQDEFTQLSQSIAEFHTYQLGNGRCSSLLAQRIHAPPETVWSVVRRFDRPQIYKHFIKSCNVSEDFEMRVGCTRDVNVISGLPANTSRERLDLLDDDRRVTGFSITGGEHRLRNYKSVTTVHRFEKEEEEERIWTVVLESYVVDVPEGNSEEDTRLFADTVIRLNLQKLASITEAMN; partner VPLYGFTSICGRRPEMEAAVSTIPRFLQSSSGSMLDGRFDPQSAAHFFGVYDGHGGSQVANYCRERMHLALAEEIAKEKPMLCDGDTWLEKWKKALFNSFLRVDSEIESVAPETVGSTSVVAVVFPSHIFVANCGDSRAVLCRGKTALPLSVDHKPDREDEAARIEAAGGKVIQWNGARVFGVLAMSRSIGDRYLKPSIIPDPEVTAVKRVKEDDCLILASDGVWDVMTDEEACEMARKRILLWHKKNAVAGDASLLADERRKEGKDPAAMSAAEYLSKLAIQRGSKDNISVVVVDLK
| Variant | relative binding score [%] |
| --- | --- |
| T154K | 7.73 |
| R74W | 11.1 |
| K54M | -6.32 |
| A13W | 88.4 |
| F5T | 105 |
| E89M | 6.44 |
| C72Q | 94.8 |
| A84I | 22.9 |
| W134L | 106 |
| P36G | 95.6 |
| E152D | 99.6 |
| S42M | 104 |
| P146E | 65.8 |
| T120Y | 43 |
| Q51A | 91.2 |
| S150V | 89.7 |

Study 5 — target: CCNB3, cyclin fold, Cln2 fusion (human); method: yeast growth competition, sequencing; medium: yeast; notes: weak parent motif; reference: not given; direction: higher = stronger binding
Starting sequence: CDT1 docking peptide (human); PPARRRLRLSVDE
| Variant | normalised enrichment score |
| --- | --- |
| PPARARARLSVDE [R5A L7A] | -0.176 |
| APARRRLRLSVDE [P1A] | 0.0503 |
| PPARRRLRASVDE [L9A] | 0.102 |
| PPARKRLRFSVDE [R5K L9F] | 0.233 |
| PPARRRLRLSVAE [D12A] | 0.661 |
| PPARRRARLSVDE [L7A] | 0.683 |
| PPARRALRLSVDE [R6A] | 0.256 |
| PPARARLRLSVDE [R5A] | 0.103 |
| PPARRRLRFSVDE [L9F] | 1.27 |

Excerpt of the above (study 4):
| Variant | relative binding score [%] |
| --- | --- |
| K54M | -6.32 |
| Q51A | 91.2 |
| E89M | 6.44 |
| F5T | 105 |
